Measurements gathered from unrelated publications.
Each line is one published result; not all experiments were run side by side. ≈ marks a conversion by molar mass, not a printed value.
Organism: Pseudomonas aeruginosa

Compound | assay | system | setting | scale | endpoint | value
O=C1CC(c2ccc(O)cc2)Oc2cc(O)cc([O][Ga+][O]c3cc(O)cc4c3C(=O)CC(c3ccc(O)cc3)O4)c21 (stereo not shown) | pyocyanin secretion |  | 0.08 µM, 20 h |  | inhibition | 91%
CCOC(=O)c1cnc(N/N=C/c2c(-c3ccc(F)cc3)nc3ncccn23)s1 | microbial growth, well diffusion | ATCC27853 | 100 µg/mL |  | inhibition zone | 12 mm
CC[C@H](C)[C@H](NC(=O)[C@H](Cc1c[nH]cn1)NC(=O)[C@H](CCCCNC(=O)[C@@H](NC(=O)[C@H](CCCCN)NC(=O)[C@H](CCCCNC(=O)[C@H](CC(C)C)NC(=O)[C@@H]1CCCN1C(=O)[C@H](CCCCN)NC(=O)CSCCCCCCO[C@H]1O[C@@H](C)[C@@H](O)[C@@H](O)[C@@H]1O)NC(=O)[C@H](CC(C)C)NC(=O)[C@@H]1CCCN1C(=O)[C@H](CCCCN)NC(=O)CSCCCCCCO[C@H]1O[C@@H](C)[C@@H](O)[C@@H](O)[C@@H]1O)[C@@H](C)CC)NC(=O)[C@@H](NC(=O)[C@H](CCCCN)NC(=O)[C@H](CCCCNC(=O)[C@H](CC(C)C)NC(=O)[C@@H]1CCCN1C(=O)[C@H](CCCCN)NC(=O)CSCCCCCCO[C@H]1O[C@@H](C)[C@@H](O)[C@@H](O)[C@@H]1O)NC(=O)[C@H](CC(C)C)NC(=O)[C@@H]1CCCN1C(=O)[C@H](CCCCN)NC(=O)CSCCCCCCO[C@H]1O[C@@H](C)[C@@H](O)[C@@H](O)[C@@H]1O)[C@@H](C)CC)C(N)=O |  | PAO1 |  |  | concentration for 100% biofilm dispersal | 30 µM
NCC1OC(OC2C(N)CC(N)C(OC3OC(CO)C(O)C(N)C3O)C2OCCCCCCCCCCCCn2cc(CNc3nc(NCc4cn(CCCCCCCCCCCCOC5C(OC6OC(CN)C(O)CC6N)C(N)CC(N)C5OC5OC(CO)C(O)C(N)C5O)nn4)nc(NCc4cn(CCCCCCCCCCCCOC5C(OC6OC(CN)C(O)CC6N)C(N)CC(N)C5OC5OC(CO)C(O)C(N)C5O)nn4)n3)nn2)C(N)CC1O (stereo not shown) |  | PAO1, CAMHB | 8 µg/mL, added: rifampicin |  | fold potentiation of rifampicin | 128 fold
Cc1cccc2c3c(ccc12)C(=O)C1=C(OC[C@H]1C)C3=O | cytotoxicity | J774.A1, PAO1 | 100 µM, 5 h, serum-free medium |  | inhibition | < 70%
NS(=O)(=O)c1ccc(-n2c(SCC(=O)Nc3ccc([N+](=O)[O-])cc3[N+](=O)[O-])nc3ccccc3c2=O)cc1 | microbial growth, well diffusion | ATCC27853 | 500 µg/mL, 24 h |  | inhibition zone | 13 mm
CCCCCCCCCCCCCC(=O)N[C@@H](Cc1c[nH]c2ccccc12)C(=O)N[C@@H](CCCCN)C(=O)N[C@@H](CCCCN)C(=O)N[C@@H](CCCCN)C(=O)N[C@@H](CCCCN)C(N)=O |  | ATCC 27853 |  |  | MBC | 128 µg/mL (≈ 138 µM)
CC(C)CCCCC(=O)N[C@@H](CCN)C(=O)N[C@H](C(=O)N[C@@H](CCN)C(=O)N[C@H]1CCNC(=O)[C@H]([C@@H](C)O)NC(=O)[C@H](CCN)NC(=O)[C@H](CCN)NC(=O)[C@H](CC(C)C)NC(=O)[C@@H](Cc2ccccc2)NC(=O)[C@H](CCN)NC1=O)[C@@H](C)O | biofilm formation | PAO1 | 24 h, 37 °C |  | MBIC | 8 µg/mL
O=c1cc(-c2ccc(O)cc2)oc2cc(O)cc([O][Ga+][O]c3cc(O)cc4oc(-c5ccc(O)cc5)cc(=O)c34)c12 | pyoverdine secretion |  | 0.08 µM, 20 h |  | inhibition | 52%
Cn1c(C23CC4CC(CC(C4)C2)C3)nn(CCN2CCCC2)c1=S |  | IFO 3448 | 200 µg/disc, 24 h, 37 °C |  | inhibition zone diameter | < 10 mm
CCCCCCCCCCCCCCCC(=O)NCCCC[C@H](N)C(=O)N[C@@H](CCCCN)C(=O)N[C@@H](CCCCN)C(=O)N[C@@H](CCCCN)C(=O)N[C@@H](CCCCN)C(=O)N[C@@H](CCCCN)C(N)=O |  | ATCC 27853 |  |  | MBC | 128 µg/mL (≈ 125 µM)
CC[C@@H](C)[C@@H](NC(=O)[C@@H](CCCNC(=N)N)NC(=O)[C@@H](CCCNC(=N)N)NC(=O)[C@@H](Cc1c[nH]c2ccccc12)NC(=O)[C@@H](CCC(N)=O)NC(=O)[C@H](N)C(C)C)C(=O)N[C@H](CCCNC(=N)N)C(=O)N[C@@H](C(=O)N[C@H](Cc1c[nH]c2ccccc12)C(=O)N[C@@H](C(=O)N[C@@H](C(=O)N[C@H](CCCNC(=N)N)C(N)=O)[C@H](C)CC)C(C)C)C(C)C |  |  | added: serine hydroxamate 500 µM |  | concentration abolishing (p)ppGpp accumulation | 1 µg/mL
Cc1cc(O)cc2c1C(=O)c1c(cc3oc(=O)cc(C)c3c1O)C2=O |  | MTCC 2453 | 100 µg/disc |  | zone of inhibition | < 8 mm
CC[C@@H](C)[C@@H](NC(=O)[C@@H](C)NC(=O)[C@@H](CCCCN)NC(=O)[C@@H](CC(C)C)NC(=O)[C@@H](CC(C)C)NC(=O)[C@H](NC(=O)[C@@H](CCCCN)NC(=O)[C@@H](CC(C)C)NC(=O)[C@@H](CCCCN)NC(=O)[C@@H](CCCCN)NC(=O)[C@@H](CCCCN)NC(=O)[C@@H](CCCCN)NC(=O)[C@@H](C)NC(=O)[C@@H](CCCCN)NC(=O)[C@@H](CO)NC(=O)[C@@H](Cc1ccccc1)NC(=O)[C@H](NC(=O)[C@@H](CCCCN)NC(=O)[C@@H](CC(C)C)NC(=O)[C@@H](Cc1ccccc1)NC(=O)[C@@H](CO)NC(=O)[C@@H](CCCCN)NC(=O)[C@@H](Cc1c[nH]c2ccccc12)NC(=O)[C@@H](CCCCN)NC(C)=O)[C@H](C)O)[C@H](C)O)C(=O)N[C@H](CO)C(=O)N[C@H](CCCCN)C(N)=O |  | six isolates | 24 h, 37 °C |  | MIC geometric mean | 2.5 µM (≈ 7.8 µg/mL)
COc1c2c(cc3oc(=O)cc(-c4ccc(Cl)cc4)c13)C(=O)c1cc(C)cc(O)c1C2=O |  | MTCC 2453 | 100 µg/disc |  | zone of inhibition | 8 mm
COc1ccc(-c2ccn(CC[C@](C)(C(=O)NO)S(C)(=O)=O)c(=O)c2)c(F)c1 |  | PA-1950, mouse acute pneumonia model | 48 h |  | ED50 | < 25 mg/kg
CC[C@@H](C)[C@@H](NC(=O)[C@@H](C)NC(=O)[C@@H](CCCCN)NC(=O)[C@@H](CC(C)C)NC(=O)[C@@H](C)NC(=O)[C@H](NC(=O)[C@@H](Cc1c[nH]cn1)NC(=O)[C@@H](CC(C)C)NC(=O)[C@H](NC(=O)[C@H](NC(=O)[C@@H](CCCCN)NC(=O)[C@H](NC(=O)[C@@H](C)NC(=O)[C@@H](CO)NC(=O)[C@@H](CCCCN)NC(=O)[C@@H](Cc1ccccc1)NC(=O)[C@H](NC(=O)[C@@H](CCCCN)NC(=O)[C@@H](CC(C)C)NC(=O)[C@@H](Cc1ccccc1)NC(=O)[C@@H](CO)NC(=O)[C@@H](CCCCN)NC(=O)[C@@H](Cc1c[nH]c2ccccc12)NC(=O)[C@@H](CCCCN)NC(C)=O)[C@H](C)O)C(C)C)[C@H](C)O)C(C)C)[C@H](C)O)C(=O)N[C@H](CO)C(=O)N[C@H](CO)C(N)=O |  | six isolates |  |  | MIC geometric mean | 1.8 µM (≈ 5.33 µg/mL)
Cc1cc(O)c2c(c1)C(=O)c1cc3oc(=O)cc(-c4ccc(O)cc4)c3c(O)c1C2=O |  | MTCC 2453 | 100 µg/disc |  | zone of inhibition | < 8 mm
CCOC(=O)c1cnc(N/N=C/c2c(-c3ccc(Br)cc3)nc3ncccn23)s1 | microbial growth, well diffusion | ATCC27853 | 100 µg/mL |  | inhibition zone | 12 mm
C[C@@H](O)[C@H](NC(=O)c1ccc(C#Cc2ccc(CN3CCOCC3)cc2)cc1)C(=O)NO | microbial growth |  | clinical isolate |  | MIC90 | 4 µg/mL (≈ 9.14 µM)
CCCCCC1CC2CCCC3CC(C)N=C(N1)N32 (stereo not shown) | bacterial growth | ATCC 27853 |  |  | IC50 | 48.2 µM
Oc1cc(C(F)(F)F)ccc1-c1nc2c(C(F)(F)F)cc(C(F)(F)F)cc2[nH]1 | colistin potentiator | TRPA 161, colistin-resistant | 5 µM |  | MIC of colistin | 0.25 µg/mL
CC(=O)N[C@H](CCCCN)C(=O)N[C@H](CC(C)C)C(=O)N[C@H](CCCCN)C(=O)N[C@H](CO)C(=O)N[C@H](CC(C)C)C(=O)N[C@H](CC(C)C)C(=O)N[C@H](CCCCN)C(=O)N[C@@H](C(=O)N[C@H](CC(C)C)C(=O)N[C@H](CO)C(=O)N[C@H](CCCCN)C(=O)N[C@H](C)C(=O)N[C@H](CCCCN)C(=O)N[C@H](CCCCN)C(=O)N[C@H](CCCCN)C(=O)N[C@H](CCCCN)C(=O)N[C@H](CC(C)C)C(=O)N[C@H](CCCCN)C(=O)N[C@@H](C(=O)N[C@H](CC(C)C)C(=O)N[C@H](CC(C)C)C(=O)N[C@H](CCCCN)C(=O)N[C@H](C)C(=O)N[C@H](CC(C)C)C(=O)N[C@H](CO)C(=O)N[C@H](CCCCN)C(N)=O)[C@H](C)O)[C@H](C)O |  | six isolates |  | relative to: HC50 over geometric mean MIC | therapeutic index | 895
Clc1ccc(CSc2nnc(C34CC5CC(CC(C5)C3)C4)n2-c2ccccc2)cc1 |  | IFO 3448 | 200 µg/disc, 24 h, 37 °C |  | inhibition zone diameter | < 10 mm
CC[C@@H](C)[C@@H](NC(=O)[C@@H](C)NC(=O)[C@@H](CCCCN)NC(=O)[C@@H](CC(C)C)NC(=O)[C@@H](CC(C)C)NC(=O)[C@H](NC(=O)[C@@H](CCCCN)NC(=O)[C@@H](CC(C)C)NC(=O)[C@@H](C)NC(=O)[C@@H](CCCCN)NC(=O)[C@@H](CCCCN)NC(=O)[C@@H](CCCCN)NC(=O)[C@@H](C)NC(=O)[C@@H](CCCCN)NC(=O)[C@@H](CO)NC(=O)[C@@H](Cc1ccccc1)NC(=O)[C@H](NC(=O)[C@@H](CCCCN)NC(=O)[C@@H](CC(C)C)NC(=O)[C@@H](Cc1ccccc1)NC(=O)[C@@H](CO)NC(=O)[C@@H](CCCCN)NC(=O)[C@@H](Cc1c[nH]c2ccccc12)NC(=O)[C@@H](CCCCN)NC(C)=O)[C@H](C)O)[C@H](C)O)C(=O)N[C@H](CO)C(=O)N[C@H](CCCCN)C(N)=O |  | six isolates | 24 h, 37 °C |  | MIC geometric mean | 2.3 µM (≈ 7.05 µg/mL)
CC[C@H](C)[C@H](NC(=O)[C@H](Cc1c[nH]cn1)NC(=O)[C@H](CCCCNC(=O)[C@@H](NC(=O)[C@H](CCCCN)NC(=O)[C@H](Cc1ccccc1)NC(=O)[C@H](CCCCNC(=O)[C@H](CC(C)C)NC(=O)[C@@H]1CCCN1C(=O)[C@H](CCCCN)NC(=O)C[C@@H]1O[C@@H](C)[C@@H](O)[C@@H](O)[C@@H]1O)NC(=O)[C@H](CC(C)C)NC(=O)[C@@H]1CCCN1C(=O)[C@H](CCCCN)NC(=O)C[C@@H]1O[C@@H](C)[C@@H](O)[C@@H](O)[C@@H]1O)[C@@H](C)CC)NC(=O)[C@@H](NC(=O)[C@H](CCCCN)NC(=O)[C@H](Cc1ccccc1)NC(=O)[C@H](CCCCNC(=O)[C@H](CC(C)C)NC(=O)[C@@H]1CCCN1C(=O)[C@H](CCCCN)NC(=O)C[C@@H]1O[C@@H](C)[C@@H](O)[C@@H](O)[C@@H]1O)NC(=O)[C@H](CC(C)C)NC(=O)[C@@H]1CCCN1C(=O)[C@H](CCCCN)NC(=O)C[C@@H]1O[C@@H](C)[C@@H](O)[C@@H](O)[C@@H]1O)[C@@H](C)CC)C(N)=O |  | PAO1 | added: tobramycin 0.1 µM |  | concentration for 100% biofilm dispersal | 10 µM
Cc1cccc([N+](=O)[O-])c1NC(=O)CSc1nc2ccccc2c(=O)n1-c1ccc(S(N)(=O)=O)cc1 | microbial growth, well diffusion | ATCC27853 | 500 µg/mL, 24 h |  | inhibition zone | 11 mm
Fc1ccc(CSc2nnc(C34CC5CC(CC(C5)C3)C4)n2-c2ccccc2)cc1 |  | IFO 3448 | 200 µg/disc, 24 h, 37 °C |  | inhibition zone diameter | < 10 mm

Some of these lines once more:
Compound | assay | system | setting | scale | endpoint | value
CC[C@H](C)[C@H](NC(=O)[C@H](Cc1c[nH]cn1)NC(=O)[C@H](CCCCNC(=O)[C@@H](NC(=O)[C@H](CCCCN)NC(=O)[C@H](CCCCNC(=O)[C@H](CC(C)C)NC(=O)[C@@H]1CCCN1C(=O)[C@H](CCCCN)NC(=O)CSCCCCCCO[C@H]1O[C@@H](C)[C@@H](O)[C@@H](O)[C@@H]1O)NC(=O)[C@H](CC(C)C)NC(=O)[C@@H]1CCCN1C(=O)[C@H](CCCCN)NC(=O)CSCCCCCCO[C@H]1O[C@@H](C)[C@@H](O)[C@@H](O)[C@@H]1O)[C@@H](C)CC)NC(=O)[C@@H](NC(=O)[C@H](CCCCN)NC(=O)[C@H](CCCCNC(=O)[C@H](CC(C)C)NC(=O)[C@@H]1CCCN1C(=O)[C@H](CCCCN)NC(=O)CSCCCCCCO[C@H]1O[C@@H](C)[C@@H](O)[C@@H](O)[C@@H]1O)NC(=O)[C@H](CC(C)C)NC(=O)[C@@H]1CCCN1C(=O)[C@H](CCCCN)NC(=O)CSCCCCCCO[C@H]1O[C@@H](C)[C@@H](O)[C@@H](O)[C@@H]1O)[C@@H](C)CC)C(N)=O |  | PAO1 |  |  | concentration for 100% biofilm dispersal | 30 µM
NS(=O)(=O)c1ccc(-n2c(SCC(=O)Nc3ccc([N+](=O)[O-])cc3[N+](=O)[O-])nc3ccccc3c2=O)cc1 | microbial growth, well diffusion | ATCC27853 | 500 µg/mL, 24 h |  | inhibition zone | 13 mm
